Measured values of several laboratories.
Parts stem from different laboratories: compare values within a part only.

Series 1
Target: Ras GTPase-activating protein-binding protein 1, C-terminal RGG region (G3BP1, Homo sapiens, UniProt Q13283)
Chain of UniProt Q13283 (whole entry, looked up): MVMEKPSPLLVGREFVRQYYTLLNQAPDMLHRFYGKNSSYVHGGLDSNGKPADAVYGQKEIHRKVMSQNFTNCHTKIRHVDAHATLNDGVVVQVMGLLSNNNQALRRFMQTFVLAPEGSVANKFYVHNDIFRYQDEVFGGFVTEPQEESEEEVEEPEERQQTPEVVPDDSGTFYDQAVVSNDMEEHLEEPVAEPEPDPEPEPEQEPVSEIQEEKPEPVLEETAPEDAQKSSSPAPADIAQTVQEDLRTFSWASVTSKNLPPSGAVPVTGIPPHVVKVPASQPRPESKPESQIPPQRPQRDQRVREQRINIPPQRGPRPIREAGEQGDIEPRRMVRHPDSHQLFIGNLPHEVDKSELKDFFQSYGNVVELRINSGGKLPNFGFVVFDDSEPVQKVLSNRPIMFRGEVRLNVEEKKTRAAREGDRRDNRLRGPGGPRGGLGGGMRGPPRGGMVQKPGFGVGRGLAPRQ
Technique: RNA Bind-n-Seq
Form: RNA
Medium: in vitro
Tested at: 1 µM
Setting: whole 134-nt RNA, ends assumed
Added: 150 mM KCl
Baseline: input library
Reading: higher = stronger binding
Strand	log2 enrichment
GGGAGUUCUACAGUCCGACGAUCACCAAGCAGGUGGGCAUCUUUGGGAAGUGGGGCAAGGGGGGGAUAGGGAGGGGGGUAACACUUUGGGAACAGGUGGUCCCAGGUCGUUUCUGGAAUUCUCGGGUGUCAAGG	-1.08
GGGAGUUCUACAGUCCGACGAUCUCCUGUGCUACACAUCGUAUGUACCGAAUCGGCCCCCCGGGCCCCCCGGCCCCCCGGGGAAAGUAUUAUGUUACGCCGUUCGGAUCUGCAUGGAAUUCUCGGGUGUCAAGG	-1.12
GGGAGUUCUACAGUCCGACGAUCGCAGGAAGUAAAAACAAAUGGAAAUGCUUCGGAUAGUGGCAGGGGUGGGGGUUGCUAAGGAAAGGGUGGGAUGGGAGUGGGUAACGAGUUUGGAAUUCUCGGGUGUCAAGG	0.673
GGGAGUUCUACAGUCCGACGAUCUGGGAGGUGGAUUUUGUUUAUUUUUUUAGCUCAUUUCCAGGGGUGGGAAUUUUUUUUUAAUAUGUGUCAUGAAUAAAGCUGUUUUUGAAAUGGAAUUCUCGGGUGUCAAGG	3.07
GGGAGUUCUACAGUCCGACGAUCAGUCCUGUGCUACACAUCGUAUGUACCGAAUCGGGAAAAGGGAAAAGGGAAAAGGGGAAAGUAUUAUGUUACGCCGUUCGGAUCUGCACUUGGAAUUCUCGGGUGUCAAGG	1.27

Series 2
Target: Sal-like protein 4, full length isoform A (SALL4, Homo sapiens, UniProt Q9UJQ4, residues 1-1053)
Chain of UniProt Q9UJQ4 (whole entry, looked up): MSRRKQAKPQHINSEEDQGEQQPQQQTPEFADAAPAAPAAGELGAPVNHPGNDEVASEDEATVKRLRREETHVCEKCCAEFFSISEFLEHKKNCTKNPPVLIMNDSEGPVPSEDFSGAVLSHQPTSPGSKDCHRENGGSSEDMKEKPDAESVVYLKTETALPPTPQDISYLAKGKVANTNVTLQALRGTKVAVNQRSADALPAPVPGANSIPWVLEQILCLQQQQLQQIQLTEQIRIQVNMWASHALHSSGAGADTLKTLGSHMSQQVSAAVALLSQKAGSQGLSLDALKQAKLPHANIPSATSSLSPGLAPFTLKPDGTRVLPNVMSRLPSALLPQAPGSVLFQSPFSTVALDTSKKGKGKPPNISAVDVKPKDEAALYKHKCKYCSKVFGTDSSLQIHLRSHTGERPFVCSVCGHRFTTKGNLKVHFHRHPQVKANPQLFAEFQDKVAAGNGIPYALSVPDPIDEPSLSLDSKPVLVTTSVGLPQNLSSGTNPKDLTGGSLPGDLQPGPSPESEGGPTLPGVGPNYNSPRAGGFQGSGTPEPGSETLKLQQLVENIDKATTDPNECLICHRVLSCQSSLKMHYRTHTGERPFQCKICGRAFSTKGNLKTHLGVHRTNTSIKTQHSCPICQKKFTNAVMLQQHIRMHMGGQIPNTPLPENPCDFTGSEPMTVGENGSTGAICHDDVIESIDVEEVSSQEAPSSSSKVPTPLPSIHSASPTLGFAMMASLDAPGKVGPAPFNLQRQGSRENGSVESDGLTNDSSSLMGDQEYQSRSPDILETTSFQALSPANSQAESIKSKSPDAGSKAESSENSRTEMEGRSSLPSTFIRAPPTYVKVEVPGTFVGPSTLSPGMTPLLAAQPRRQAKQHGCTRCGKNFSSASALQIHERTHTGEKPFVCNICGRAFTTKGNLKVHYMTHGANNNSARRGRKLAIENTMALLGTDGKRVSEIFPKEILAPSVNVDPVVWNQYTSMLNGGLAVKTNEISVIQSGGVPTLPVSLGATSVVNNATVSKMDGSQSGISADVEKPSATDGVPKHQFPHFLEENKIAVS
Technique: universal PBM
Form: double-stranded DNA, one strand shown
Medium: in vitro
Tested at: 600 nM
Setting: 8-mer, flanks averaged, mean of replicates
Reading: higher = stronger binding
Strand	E-score
AGATTCAG	0.036
CCCTCGAA	-0.151
AATCATAC	0.233
AACTGTAA	0.302
ATAAGAAT	0.309
GCTCCGAA	-0.0323
ACTTCGAC	0.0311
GCCGGTAA	-0.168
AGCAATCA	0.106
ATCTAGCG	-0.0187
TAAACAGA	0.247
CGTTTATA	0.317
GCCTATGA	0.0761
AAGCTACC	-0.077
AGTGCGGA	-0.154
GAAAGCCC	-0.173
AAGTGGAC	-0.0864
GCAGCCGC	-0.268
GCCACTAC	-0.235
CAGTTTAG	0.00485
CTACAAGA	0.0552
AGGCAGTG	-0.067
TCAGTAGA	0.061
ACTAAACG	-0.00577
ACTGTCCC	-0.14

Series 3
Target: Histone acetyltransferase KAT6A, both winged helices, GST fusion (KAT6A, Homo sapiens, UniProt Q92794, residues 1-181)
Technique: protein binding microarray
Form: double-stranded DNA, one strand shown
Medium: in vitro
Tested at: not given
Setting: 8-mer, flanks averaged, mean of 2 arrays, mostly near background
Baseline: not given
Reading: higher = stronger binding
Target sequence (chain): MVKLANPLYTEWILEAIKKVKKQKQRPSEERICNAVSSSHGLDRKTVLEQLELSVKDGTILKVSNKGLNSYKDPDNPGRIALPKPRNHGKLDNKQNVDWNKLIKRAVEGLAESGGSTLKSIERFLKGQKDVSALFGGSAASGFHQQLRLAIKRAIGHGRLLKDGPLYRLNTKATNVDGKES
Strand	E-score
AAGATTTC	-0.0493
CACTGCGC	0.285
CGCATCGA	0.181
GTGGAAAA	0.00551
ATGTAAGC	0.029
ACATTTCA	-0.118
CGATGTGA	-0.00456
CTCTGGTA	-0.205
AACGCGAG	0.117
GCCCAGCA	-0.116
GAAAATGC	-0.064
AACCATCA	-0.0477
TGAACCCA	0.0113
AACAGCTT	-0.0191
TCAGCCGA	0.0576
ACTAAGTA	-0.102

Series 4
Target: RNA binding protein fox-1 homolog 2, RRM domain, GST-SBP tag (RBFOX2, Homo sapiens, UniProt O43251-10, residues 100-194)
Technique: RNA Bind-n-Seq
Form: RNA
Medium: in vitro
Tested at: 365 nM
Setting: natural RNA segment, single round, ends assumed
Baseline: no-protein control
Reading: higher = stronger binding
Construct (chain): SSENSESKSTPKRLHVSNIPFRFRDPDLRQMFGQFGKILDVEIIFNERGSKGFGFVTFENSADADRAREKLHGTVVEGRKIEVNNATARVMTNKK
Strand	RBNS enrichment (R)
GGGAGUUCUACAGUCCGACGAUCUAAUGCUUUGUUAAAGAACCCCCUUUCCGUGCCACUGGUGAAUAGGGAUUGAUGAAUGGGAAGAGUUGAGUCAGACCAGUAAGCCCGUCCUGGGUUCCUUGAACAUGUUCUGGAAUUCUCGGGUGCCAA	0.614
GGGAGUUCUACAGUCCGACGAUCCUCCUACCAGGUCUGGGAUUGAGAUGUUAGAGUCUUCAGUUUUAUAGCCGGCUCCUGAAAGCAGGCGACAUCAGAGUGGUAACAGUCAGUAGGCUGCAGUAGGUGUCCUAUGGAAUUCUCGGGUGCCAA	0.392
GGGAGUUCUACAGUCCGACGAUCUUUCUUAUCCUGACCUGACCAUACUAAUAAAUAUAAUUUAUAAGCAUUGCCAUUGGAGGCUCAAUUGACUGAAAUUACUUUAACAUUUUGGAAAUUGUUAUGUAUCACUAUGGAAUUCUCGGGUGCCAA	0.325
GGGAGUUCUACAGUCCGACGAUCUCCAAGGGACAUACACUGAAACAUACAGCUGUCUAGGUUAUAAAUGUGUAGGUCUACAACUGCUAGUCUAAAAACUGUUUGCACCGAGCCCUCUGAUCAGAGUGGAUGAGUGGAAUUCUCGGGUGCCAA	0.456
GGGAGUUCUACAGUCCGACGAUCGCCAAAGGACAAGCCAUUGAUCCCAAAGCCUCGUAUGCCCACCAGGGCCCCUGGUGCCACUGCGUAGUGUUCACUAACACCCCGCCUCACCAGGCAGGAGCCCCGACCCCUGGAAUUCUCGGGUGCCAA	0.235
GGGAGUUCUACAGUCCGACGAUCGUGCUGGAUUCAUGCUUCCAGAUGUGAGAUGUGUGUUCUAAUCUGACAGUGUGUUUUGUAAUCUGUCAAUCAGUGUUGGAGAUAUGCCCAGGCUAUUACAGGCAUAUUAUUGGAAUUCUCGGGUGCCAA	2.71
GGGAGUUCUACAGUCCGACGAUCGCAGAGUGGCGAUAUAUUUAUCAGAAAGAUUAUAAAGUGUGUCCAGUUUUGCCUGUCUAUAAAAGAUGAUAGUAAUUUACCAAGUGACAUUUGCAGAGAAACAGGUGUACUGGAAUUCUCGGGUGCCAA	0.504
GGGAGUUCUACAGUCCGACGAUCAUGAGUACCAACAUUGAAAGGCAUUCCUGUGACCGUCAGACCAUAGUCUGCACACCUACUCUGCCUGUGGAAGCAGCACCUGGGCCUCCUGCCUGCUUUCCUCAAGACGAUGGAAUUCUCGGGUGCCAA	1.14
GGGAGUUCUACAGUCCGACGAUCUAGUUCCCGCGACAUUCCGCCUUCCUCCGUUAGCCCCUUGGUAAUCCACCACCAAGCCUGGGGACUUCGCCCCAACAAAAUUGUAAACGUUGUUAGGUUUUCGUGUAAGAUGGAAUUCUCGGGUGCCAA	0.383
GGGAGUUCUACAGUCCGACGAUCGGUAGCAUGGGUGGUUCAUCAGAGCAGUGGUGGCUCUUGCCUGGCAGUCAGCCCCUUCAAGUCUGGACAGCCCUGGAGUUCUGGUCCCCUCUCCUAGCACUGUACCUUUAUGGAAUUCUCGGGUGCCAA	1.12
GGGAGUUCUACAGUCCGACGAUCUUAUAUGAAGUUGCAUUAUUGUGGACUUGGCUGUCUUGUGAUGAAUUUUUUUCAUAUGUAUUCUGUGCCAUACUAUUGUUAAAAUGAACUGUUGCUAUUGUGAGAUGGAUUGGAAUUCUCGGGUGCCAA	1.18
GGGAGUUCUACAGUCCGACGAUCGGGGCCAGGGAGCUGGAGAUGGCCUCCAGCGUCAGUGCCAAGACUGAGCGGGCCCUCCAGUGUUGUCCAAGGAAAUGUAGAAUCACUUUGUAGAUAUGGAGAUGAAGAAGUGGAAUUCUCGGGUGCCAA	0.516

Series 5
Target: Protein C-ets-1 (ETS1, Homo sapiens, UniProt P14921, residues 1-441, K379A, full length assumed)
Technique: protein-binding microarray
Form: double-stranded DNA, one strand shown
Medium: in vitro
Tested at: not given
Setting: k-mer, scored over probes, only values ≥0.25
Reading: higher = stronger binding
Target sequence (chain): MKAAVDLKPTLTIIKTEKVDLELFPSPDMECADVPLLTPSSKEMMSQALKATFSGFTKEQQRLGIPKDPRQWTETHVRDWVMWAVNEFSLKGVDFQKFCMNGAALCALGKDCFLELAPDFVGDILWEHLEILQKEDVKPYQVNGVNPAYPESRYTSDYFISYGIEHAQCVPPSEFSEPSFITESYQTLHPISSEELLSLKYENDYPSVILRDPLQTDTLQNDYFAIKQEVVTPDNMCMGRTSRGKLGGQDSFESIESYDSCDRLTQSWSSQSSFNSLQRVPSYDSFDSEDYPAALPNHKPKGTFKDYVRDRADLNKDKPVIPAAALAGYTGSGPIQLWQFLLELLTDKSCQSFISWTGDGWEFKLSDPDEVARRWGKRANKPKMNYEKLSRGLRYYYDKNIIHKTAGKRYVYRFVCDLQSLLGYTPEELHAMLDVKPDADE
Strand	E-score
ATTACGTA	0.257
ACGGTACT	0.291
CCGGCAGG	0.32
AGACCGGA	0.333
ACGACACG	0.292
ATCCGGCG	0.287
CCGGCACC	0.363
TCAACACA	0.287
CCGGGATC	0.344
GCCCACCC	0.321
CACATTAC	0.265
ATGAACCG	0.253
CCTTACCG	0.289
CACATATC	0.293
ACATGTAC	0.265
GACGTCCA	0.265
AACGCCGG	0.33
GACACACA	0.258
CCGGTAGC	0.391

For quick reference, copied from above (series 4):
Strand	RBNS enrichment (R)
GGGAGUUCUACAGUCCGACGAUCCUCCUACCAGGUCUGGGAUUGAGAUGUUAGAGUCUUCAGUUUUAUAGCCGGCUCCUGAAAGCAGGCGACAUCAGAGUGGUAACAGUCAGUAGGCUGCAGUAGGUGUCCUAUGGAAUUCUCGGGUGCCAA	0.392
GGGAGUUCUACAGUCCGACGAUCUUUCUUAUCCUGACCUGACCAUACUAAUAAAUAUAAUUUAUAAGCAUUGCCAUUGGAGGCUCAAUUGACUGAAAUUACUUUAACAUUUUGGAAAUUGUUAUGUAUCACUAUGGAAUUCUCGGGUGCCAA	0.325
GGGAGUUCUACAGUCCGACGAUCUCCAAGGGACAUACACUGAAACAUACAGCUGUCUAGGUUAUAAAUGUGUAGGUCUACAACUGCUAGUCUAAAAACUGUUUGCACCGAGCCCUCUGAUCAGAGUGGAUGAGUGGAAUUCUCGGGUGCCAA	0.456
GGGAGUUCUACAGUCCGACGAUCGCCAAAGGACAAGCCAUUGAUCCCAAAGCCUCGUAUGCCCACCAGGGCCCCUGGUGCCACUGCGUAGUGUUCACUAACACCCCGCCUCACCAGGCAGGAGCCCCGACCCCUGGAAUUCUCGGGUGCCAA	0.235
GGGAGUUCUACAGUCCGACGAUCGUGCUGGAUUCAUGCUUCCAGAUGUGAGAUGUGUGUUCUAAUCUGACAGUGUGUUUUGUAAUCUGUCAAUCAGUGUUGGAGAUAUGCCCAGGCUAUUACAGGCAUAUUAUUGGAAUUCUCGGGUGCCAA	2.71
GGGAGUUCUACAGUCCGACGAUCGCAGAGUGGCGAUAUAUUUAUCAGAAAGAUUAUAAAGUGUGUCCAGUUUUGCCUGUCUAUAAAAGAUGAUAGUAAUUUACCAAGUGACAUUUGCAGAGAAACAGGUGUACUGGAAUUCUCGGGUGCCAA	0.504
